{"data": "Results collected from several papers", "note": "Each line is one published result; not all experiments were run side by side. Values joined by “and” are separate records of one study, mostly repeats; a detail may differ. Numbers after ± are the reported error."}
{"Structure (SMILES)": "COc1cccc(Oc2ccccc2NC(=O)CNC(=O)c2cccc3ccccc23)c1", "test system": "esterase-deficient SCID mice, male", "conditions": "oral, 40 mg/kg/day, 14 days, toxicity study", "measurement": "serum cholesterol", "value": "93 mg/dL and 90 mg/dL and 88 mg/dL"}
{"Structure (SMILES)": "C1=Cc2nc1cc1ccc([n-]1)c(C1CC1)c1nc(cc3ccc([n-]3)c2C2CC2)C=C1.CC(=O)[O-].[Mn+3]", "assay": "LC-MS/MS", "test system": "Sprague-Dawley rat, plasma", "conditions": "oral gavage, dose not given, 120 min", "measurement": "plasma concentration", "value": "324 ng/mL and 406 ng/mL"}
{"Structure (SMILES)": "CC(C)C[C@@H]1NC(=O)CNC(=O)[C@H](CC(N)=O)NC(=O)[C@H](CCCNC(=N)N)NC(=O)[C@H]([C@@H](C)O)NC(=O)[C@@H]2CSSC[C@@H]3NC(=O)[C@H]([C@@H](C)O)NC(=O)CNC(=O)CNC(=O)[C@H](CCCCN)NC(=O)[C@@H]4CSSC[C@H](NC(=O)[C@H]([C@@H](C)O)NC(=O)[C@H](CSSC[C@H](NC(=O)[C@H](C(C)C)NC(=O)[C@@H]5CCCN5C1=O)C(=O)NCC(=O)N[C@@H](CCC(=O)O)C(=O)N[C@@H]([C@@H](C)O)C(=O)N4)NC(=O)CNC(=O)[C@@H]1CCCN1C(=O)[C@H]([C@@H](C)O)NC(=O)[C@H](CC(N)=O)NC3=O)C(=O)N[C@@H](CO)C(=O)N[C@@H](Cc1c[nH]c3ccccc13)C(=O)N1CCC[C@H]1C(=O)N[C@@H](C(C)C)C(=O)N2", "assay": "HPLC", "test system": "ammonium bicarbonate", "conditions": "180 µM, 14 days, pH 9.0, 25 °C, deamidation stability", "measurement": "remaining peptide", "value": "90.5 ± 1.8%"}
{"Structure (SMILES)": "CC(CN1c2ccccc2Sc2ccccc21)N(C)C (centres unmarked)", "target or system": "Plasmodium falciparum", "test system": "7G8", "measurement": "IC50", "value": "6.31 µM"}
{"Structure (SMILES)": "O=C(Nc1ccccc1)C1CCN(C(=O)Oc2cccnc2)CC1", "assay": "measured: memory impairment", "test system": "healthy female humans", "conditions": "concentration not given, safety set, all doses pooled", "measurement": "TEAE incidence", "value": "13%"}
{"Structure (SMILES)": "C[C@@H]1NC(=O)[C@H](CCCCNC(=O)CO/N=C/C(=O)NCCCC[C@@H]2NC(=O)[C@@H](Cc3ccccc3)NC(=O)[C@H](CC(=O)O)NC(=O)CNC(=O)[C@H](CCCNC(=N)N)NC2=O)NC(=O)CNC(=O)[C@@H]2CCCN2C(=O)[C@H](CCCCNC(=O)CO/N=C/C(=O)NCCCC[C@@H]2NC(=O)[C@@H](Cc3ccccc3)NC(=O)[C@H](CC(=O)O)NC(=O)CNC(=O)[C@H](CCCNC(=N)N)NC2=O)NC(=O)[C@H](CCCCNC(=O)CCNC(=O)CCNC(=O)CCNC(=O)[C@H](CCCCN)NC(=O)[C@H](Cc2ccccc2)NC(=O)CNC(=O)CN2CCCNCCNCCCNCC2)NC(=O)[C@H](CCCCNC(=O)CO/N=C/C(=O)NCCCC[C@@H]2NC(=O)[C@@H](Cc3ccccc3)NC(=O)[C@H](CC(=O)O)NC(=O)CNC(=O)[C@H](CCCNC(=N)N)NC2=O)NC(=O)CNC(=O)[C@@H]2CCCN2C(=O)[C@H](CCCCNC(=O)CO/N=C/C(=O)NCCCC[C@@H]2NC(=O)[C@@H](Cc3ccccc3)NC(=O)[C@H](CC(=O)O)NC(=O)CNC(=O)[C@H](CCCNC(=N)N)NC2=O)NC1=O [copper-64 labelled]", "test system": "normal mice, stomach", "conditions": "intravenous, 0.74 MBq, 24 h post-injection", "measurement": "tissue uptake", "value": "0.7 ± 0.12 %ID/g"}
{"Structure (SMILES)": "O=C(CCCN1CC=C(n2c(=O)[nH]c3ccccc32)CC1)c1ccc(F)cc1", "target or system": "Plasmodium falciparum", "test system": "3D7", "measurement": "IC50", "value": "3.16 µM"}
{"Structure (SMILES)": "Clc1ccc(-c2ccccc2)cc1", "test system": "Sprague-Dawley rats, female, serum", "conditions": "inhalation, 23 µg/rat, 1 h after exposure", "measurement": "glucose", "value": "304 ± 115 mg/dL"}
{"Structure (SMILES)": "C[C@]1(CO)Cc2ncn(-c3ccc(C#N)c(Cl)c3)c2C(=O)O1", "test system": "human", "conditions": "20 mg multiple doses, fasted", "measurement": "subjects with any TEAE", "value": "33.3%"}
{"Structure (SMILES)": "O[C@H]1CCCN[C@@H]1CCCn1cnc2c(Cl)c(Cl)ccc21", "test system": "healthy humans, plasma", "conditions": "oral, 150 mg twice daily", "measurement": "CL/F at steady state", "value": "2450 mL/min"}
{"Structure (SMILES)": "COc1ccc2nc3cc(Cl)ccc3c(Nc3cc(CN4CCCC4)c(O)c(CN4CCCC4)c3)c2n1", "test system": "mouse, blood", "conditions": "oral, 57 mg/kg, tolerability, mean", "measurement": "monocytes", "value": "4.64%"}
{"Structure (SMILES)": "COc1cc2c(Oc3ccc4[nH]c(C)cc4c3F)ccnc2cc1OCC1(N)CC1", "test system": "paediatric recurrent refractory sarcoma", "conditions": "8 mg/kg", "measurement": "grade 1 or 2 TBIL elevation", "value": "0%"}
{"Structure (SMILES)": "Clc1ccc(-c2ccc(Cl)c(Cl)c2)c(Cl)c1", "test system": "fresh water", "conditions": "20 °C, S30-1 sampler, 30 µm", "measurement": "log K(PDMS-water)", "value": "5.66 ± 0.05"}
{"Structure (SMILES)": "CO[C@H]1C[C@@H]2CC[C@@H](C)[C@@](O)(O2)C(=O)C(=O)N2CCCC[C@H]2C(=O)O[C@H]([C@H](C)C[C@@H]2CC[C@@H](OC(=O)NCCOCCOCCOCCOCCOCCOCCOCCOCCC(=O)N3CCc4cc(Cn5nc(-c6ccc7oc(N)nc7c6)c6c(N)ncnc65)ccc4C3)[C@H](OC)C2)C[C@@H](O)[C@H](C)/C=C(\\C)[C@@H](O)[C@@H](OC)C(=O)[C@H](C)C[C@H](C)/C=C/C=C/C=C/1C", "test system": "patients with advanced solid tumours", "conditions": "intravenous, 6 mg weekly, any grade", "measurement": "decreased appetite leading to dose reduction", "value": "0%"}
{"Structure (SMILES)": "[O-][S+]1CCc2nc(N3CCC(c4ncc(Cl)cn4)CC3)nc(NC3(CO)CCC3)c21 (centres unmarked)", "test system": "idiopathic pulmonary fibrosis patients", "conditions": "18 mg twice daily", "measurement": "Headache adverse events", "value": "10%"}
{"Structure (SMILES)": "CN1CC[C@@H](c2c(O)cc(O)c3c(=O)cc(-c4ccc(C(F)(F)F)cc4Cl)oc23)[C@@H]1CO", "assay": "measured: Pneumonia", "test system": "relapsed B-cell malignancies", "conditions": "oral, 100 mg, grade 3-4, intermittent dosing", "measurement": "patients with adverse event", "value": "0%"}
{"Structure (SMILES)": "COc1ccc(-c2c(-c3ccc(C#N)c(F)c3)nc(N3CCC(N)CC3)n(C)c2=O)cc1F", "assay": "measured: Thrombocytopenia", "test system": "human patients", "conditions": "oral, 60 mg, dose expansion", "measurement": "serious adverse event incidence", "value": "5%"}
{"Structure (SMILES)": "Clc1cc(Cl)c(-c2c(Cl)cc(Cl)cc2Cl)c(Cl)c1", "test system": "fresh water", "conditions": "20 °C, S30-1 sampler, 30 µm", "measurement": "log K(PDMS-water)", "value": "6.59 ± 0.06"}
{"Structure (SMILES)": "Cc1cccc(Cn2nc(C3CC3)c3c(NC(=O)c4cnc5cc(OCCN6CCN(C)CC6)ccn45)cccc32)n1", "assay": "CTCAE v4.03, measured: ALT increased", "test system": "PD-1/PD-L1 inhibitor-refractory patients", "conditions": "oral, dose not given, with: pembrolizumab IV every 3 weeks", "measurement": "all-cause adverse events", "value": "15.8%"}
{"Structure (SMILES)": "CN1CCN(c2ccc(Nc3nccc(-c4cccc(C#N)c4)n3)cc2C(F)(F)F)CC1", "test system": "Danio rerio embryos", "conditions": "5 µM, 5 d", "measurement": "toxicity", "value": "0%"}
